Measured values pooled from the literature.
Several values in a cell are separate wells, animals, samples, runs or records. ± marks the error that the study gave.
T1: ssDNA, aptamer; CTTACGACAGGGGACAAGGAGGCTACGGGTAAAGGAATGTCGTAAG
Sequence of UniProt P51575 (whole entry, unmodified, looked up): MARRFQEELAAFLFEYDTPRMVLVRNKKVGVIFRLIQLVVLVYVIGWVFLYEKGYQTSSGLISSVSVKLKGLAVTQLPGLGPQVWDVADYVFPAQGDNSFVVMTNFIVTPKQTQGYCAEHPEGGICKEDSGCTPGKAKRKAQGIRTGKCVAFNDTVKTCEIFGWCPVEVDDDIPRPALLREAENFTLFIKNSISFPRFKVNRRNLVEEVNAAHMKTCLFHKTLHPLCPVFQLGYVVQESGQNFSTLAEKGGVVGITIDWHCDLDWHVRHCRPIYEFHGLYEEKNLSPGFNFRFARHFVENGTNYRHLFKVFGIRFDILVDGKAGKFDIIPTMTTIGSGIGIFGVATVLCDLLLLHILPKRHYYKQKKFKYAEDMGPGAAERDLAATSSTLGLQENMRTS
Sequence of UniProt Q96SW2 (whole entry, looked up): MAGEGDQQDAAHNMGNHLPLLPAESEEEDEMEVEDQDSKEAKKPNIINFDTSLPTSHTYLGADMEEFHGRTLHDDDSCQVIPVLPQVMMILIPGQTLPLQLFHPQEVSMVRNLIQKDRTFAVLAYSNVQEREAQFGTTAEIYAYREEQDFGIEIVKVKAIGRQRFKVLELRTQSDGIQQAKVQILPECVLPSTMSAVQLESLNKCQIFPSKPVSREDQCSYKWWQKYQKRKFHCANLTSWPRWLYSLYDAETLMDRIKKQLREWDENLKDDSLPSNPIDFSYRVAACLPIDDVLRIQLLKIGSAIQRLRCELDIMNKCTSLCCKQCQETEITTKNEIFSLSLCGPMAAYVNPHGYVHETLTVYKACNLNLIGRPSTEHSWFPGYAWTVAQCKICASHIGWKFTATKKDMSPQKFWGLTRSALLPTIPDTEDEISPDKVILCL
Sequence of UniProt P15170 (whole entry, looked up): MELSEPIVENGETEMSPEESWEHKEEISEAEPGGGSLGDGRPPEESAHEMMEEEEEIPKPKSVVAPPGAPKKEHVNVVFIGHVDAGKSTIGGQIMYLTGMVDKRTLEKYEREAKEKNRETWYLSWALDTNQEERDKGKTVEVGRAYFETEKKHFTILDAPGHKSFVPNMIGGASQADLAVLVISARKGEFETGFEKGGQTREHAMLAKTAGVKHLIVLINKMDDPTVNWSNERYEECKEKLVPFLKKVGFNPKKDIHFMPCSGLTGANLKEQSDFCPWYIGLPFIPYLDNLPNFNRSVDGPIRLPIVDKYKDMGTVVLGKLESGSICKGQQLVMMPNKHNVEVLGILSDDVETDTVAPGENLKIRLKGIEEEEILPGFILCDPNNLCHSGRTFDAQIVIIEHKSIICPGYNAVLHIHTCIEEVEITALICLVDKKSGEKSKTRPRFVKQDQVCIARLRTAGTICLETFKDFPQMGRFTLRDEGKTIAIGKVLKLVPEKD
Sequence of UniProt Q8NER1 (whole entry, looked up): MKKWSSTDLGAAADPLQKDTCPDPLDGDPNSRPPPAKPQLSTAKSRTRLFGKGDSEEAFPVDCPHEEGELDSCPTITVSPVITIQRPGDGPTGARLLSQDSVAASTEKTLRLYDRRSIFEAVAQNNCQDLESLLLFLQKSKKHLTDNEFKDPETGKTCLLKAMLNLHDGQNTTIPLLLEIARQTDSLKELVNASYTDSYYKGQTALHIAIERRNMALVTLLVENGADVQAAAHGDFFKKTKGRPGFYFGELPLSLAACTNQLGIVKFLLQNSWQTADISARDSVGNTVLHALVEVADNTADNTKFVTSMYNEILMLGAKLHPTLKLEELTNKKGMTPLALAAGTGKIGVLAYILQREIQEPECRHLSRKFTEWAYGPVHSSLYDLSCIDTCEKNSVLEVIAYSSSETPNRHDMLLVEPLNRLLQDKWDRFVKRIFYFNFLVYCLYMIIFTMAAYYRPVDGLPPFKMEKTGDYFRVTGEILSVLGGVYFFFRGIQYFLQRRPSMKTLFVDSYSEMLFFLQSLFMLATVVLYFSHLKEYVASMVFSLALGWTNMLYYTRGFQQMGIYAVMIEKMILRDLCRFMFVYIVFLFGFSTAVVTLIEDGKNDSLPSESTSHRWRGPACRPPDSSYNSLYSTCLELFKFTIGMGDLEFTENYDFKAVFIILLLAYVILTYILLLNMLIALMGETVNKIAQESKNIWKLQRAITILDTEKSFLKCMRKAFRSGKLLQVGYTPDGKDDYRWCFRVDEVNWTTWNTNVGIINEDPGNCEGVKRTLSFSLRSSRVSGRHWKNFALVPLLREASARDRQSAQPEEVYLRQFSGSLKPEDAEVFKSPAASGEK
Sequence of UniProt Q96EB6 (whole entry, looked up): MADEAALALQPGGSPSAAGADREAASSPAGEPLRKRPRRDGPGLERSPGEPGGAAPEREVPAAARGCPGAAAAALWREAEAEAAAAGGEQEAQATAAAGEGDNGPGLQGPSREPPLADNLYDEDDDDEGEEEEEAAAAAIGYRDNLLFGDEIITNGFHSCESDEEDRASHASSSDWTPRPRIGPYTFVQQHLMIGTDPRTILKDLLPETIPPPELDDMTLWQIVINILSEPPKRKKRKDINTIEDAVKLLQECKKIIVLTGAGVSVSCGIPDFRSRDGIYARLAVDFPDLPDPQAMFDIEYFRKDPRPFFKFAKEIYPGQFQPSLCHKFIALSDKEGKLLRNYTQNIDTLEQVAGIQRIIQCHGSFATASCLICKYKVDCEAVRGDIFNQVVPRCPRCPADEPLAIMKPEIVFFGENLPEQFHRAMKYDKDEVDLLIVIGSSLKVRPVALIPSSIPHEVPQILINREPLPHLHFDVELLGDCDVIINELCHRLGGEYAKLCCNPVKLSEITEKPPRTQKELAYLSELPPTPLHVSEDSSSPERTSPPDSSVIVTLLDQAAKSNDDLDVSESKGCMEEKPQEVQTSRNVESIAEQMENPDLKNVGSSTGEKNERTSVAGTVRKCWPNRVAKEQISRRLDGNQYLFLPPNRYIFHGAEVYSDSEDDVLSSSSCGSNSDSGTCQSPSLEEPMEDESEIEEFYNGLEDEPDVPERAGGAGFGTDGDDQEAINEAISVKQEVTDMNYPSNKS
Sequence of UniProt P43490 (whole entry, looked up): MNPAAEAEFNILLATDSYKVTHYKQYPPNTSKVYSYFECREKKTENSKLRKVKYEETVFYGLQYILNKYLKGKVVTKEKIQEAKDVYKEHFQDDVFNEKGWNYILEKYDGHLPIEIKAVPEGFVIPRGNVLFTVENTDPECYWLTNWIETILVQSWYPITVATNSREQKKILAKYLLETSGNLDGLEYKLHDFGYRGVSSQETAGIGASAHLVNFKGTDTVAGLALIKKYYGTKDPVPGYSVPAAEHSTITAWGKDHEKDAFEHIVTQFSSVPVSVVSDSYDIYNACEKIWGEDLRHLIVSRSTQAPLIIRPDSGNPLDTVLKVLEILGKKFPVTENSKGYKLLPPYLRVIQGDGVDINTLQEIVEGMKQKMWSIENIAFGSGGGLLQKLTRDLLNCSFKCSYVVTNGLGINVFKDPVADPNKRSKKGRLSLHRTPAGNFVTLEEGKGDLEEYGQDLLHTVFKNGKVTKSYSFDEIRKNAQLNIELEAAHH
Sequence of UniProt Q07011 (whole entry, unmodified, looked up): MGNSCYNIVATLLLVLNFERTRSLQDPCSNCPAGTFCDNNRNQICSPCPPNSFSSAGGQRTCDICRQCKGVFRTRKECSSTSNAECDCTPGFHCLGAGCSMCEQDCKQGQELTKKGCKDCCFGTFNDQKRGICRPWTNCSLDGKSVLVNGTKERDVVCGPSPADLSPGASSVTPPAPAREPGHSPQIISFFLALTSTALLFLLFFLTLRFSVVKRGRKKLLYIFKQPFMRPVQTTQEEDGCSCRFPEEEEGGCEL
Sequence of UniProt Q96NY8 (whole entry, looked up): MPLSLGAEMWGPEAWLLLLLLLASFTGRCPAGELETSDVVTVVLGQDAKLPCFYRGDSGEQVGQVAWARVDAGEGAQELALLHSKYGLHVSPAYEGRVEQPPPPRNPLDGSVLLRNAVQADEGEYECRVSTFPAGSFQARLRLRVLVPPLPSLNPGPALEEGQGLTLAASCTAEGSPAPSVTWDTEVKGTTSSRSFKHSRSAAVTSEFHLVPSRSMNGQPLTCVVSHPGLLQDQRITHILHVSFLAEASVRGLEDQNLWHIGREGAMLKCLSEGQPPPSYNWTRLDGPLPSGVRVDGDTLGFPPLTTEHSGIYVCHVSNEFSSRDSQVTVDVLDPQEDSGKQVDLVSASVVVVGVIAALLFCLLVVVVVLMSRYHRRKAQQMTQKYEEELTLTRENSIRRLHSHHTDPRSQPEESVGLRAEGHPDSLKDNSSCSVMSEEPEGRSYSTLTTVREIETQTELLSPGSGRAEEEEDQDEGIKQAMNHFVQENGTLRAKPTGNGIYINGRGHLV
Sequence of UniProt P45983 (whole entry, looked up): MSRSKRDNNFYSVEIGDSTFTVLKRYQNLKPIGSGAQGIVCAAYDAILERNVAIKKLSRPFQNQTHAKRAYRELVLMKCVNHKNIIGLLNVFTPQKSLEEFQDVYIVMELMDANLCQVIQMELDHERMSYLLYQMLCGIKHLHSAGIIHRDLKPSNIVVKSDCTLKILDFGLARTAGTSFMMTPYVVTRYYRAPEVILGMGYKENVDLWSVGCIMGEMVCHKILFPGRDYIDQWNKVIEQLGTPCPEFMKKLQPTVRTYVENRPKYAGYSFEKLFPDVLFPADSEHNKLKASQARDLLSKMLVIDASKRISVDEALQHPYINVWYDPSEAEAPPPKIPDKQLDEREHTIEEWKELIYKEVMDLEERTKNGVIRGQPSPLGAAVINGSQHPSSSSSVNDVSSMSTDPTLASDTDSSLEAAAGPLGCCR
Sequence of UniProt Q16774 (whole entry, unmodified, looked up): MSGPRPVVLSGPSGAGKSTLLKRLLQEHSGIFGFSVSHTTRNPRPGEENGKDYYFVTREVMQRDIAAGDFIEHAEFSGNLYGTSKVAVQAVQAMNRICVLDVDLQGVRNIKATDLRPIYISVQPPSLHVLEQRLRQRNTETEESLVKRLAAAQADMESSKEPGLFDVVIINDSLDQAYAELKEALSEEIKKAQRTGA

| SMILES | target | test | test system | setting | scale | measurement | result |
| --- | --- | --- | --- | --- | --- | --- | --- |
| N[C@@H](CC(=O)O)C(=O)O | Methyl-accepting chemotaxis protein, ligand-binding domain (Pectobacterium atrosepticum, UniProt Q6D6I9) | binding, thermal shift |  | ligand-binding domain |  | ΔTm | binds |
| Cc1cc(-c2cccc(-n3cc(COC(=O)[C@]4(C)C=C(C(=O)OC(C)(C)C)C(=O)CC4)nn3)c2)c(C)c2c1CNCC2 | Mitogen-activated protein kinase 8 (MAPK8, Homo sapiens, UniProt P45983) | D-peptide binding, inhibitor, FP peptide displacement |  | 3.125 µM | lower is stronger displacement | fraction bound | 0.768 |
| COc1cc(F)ccc1-c1ncnc(Nc2cccc(C[S@](C)(=N)=O)c2)n1 | Misshapen-like kinase 1 (MINK1, Homo sapiens, UniProt Q8N4C8) | kinase activity |  | 10 µM, added: 10 µM ATP |  | remaining activity | 45% |
| CC(=O)Nc1nc2c(Oc3cc(-c4ccc(C(F)(F)F)cc4)ncn3)cccc2s1 | Transient receptor potential cation channel subfamily V member 1 (TRPV1, Homo sapiens, UniProt Q8NER1) | antagonist, automated patch clamp | HEK-293T expressing hTRPV1 | 1 µM, added: 100 nM capsaicin |  | reversal potential change | -21.2 ± 0.2 mV |
| CCCC[C@@H]1NC(=O)[C@H](Cc2ccc(O)cc2)NC(=O)[C@@H]2CCCN2C(=O)[C@H](CC(=O)O)NC(=O)[C@H](C)NC(=O)[C@H](Cc2ccccc2)NC(=O)[C@@H]2CSCCC(=O)N3CN(CN(C3)C(=O)CCSC[C@@H](C(=O)N[C@@H](C)C(N)=O)NC1=O)C(=O)CCSC[C@H](NC(C)=O)C(=O)N[C@@H](CC(C)(C)C)C(=O)N1CCC[C@H]1C(=O)N[C@@H](CCCCNC(=O)CCc1cn(CC(=O)N[C@H]3CSCCC(=O)N4CN5CN(C4)C(=O)CCSC[C@H](NC(=O)[C@@H](CC(=O)O)NC(=O)[C@H](Cc4cccc6ccccc46)NC(=O)[C@@H]4CCCN4C3=O)C(=O)N[C@@H](CCSC)C(=O)N[C@@H](CCCCNC(=N)N)C(=O)N[C@@H](CC(=O)O)C(=O)N[C@@H](Cc3c[nH]c4ccccc34)C(=O)N[C@@H](CO)C(=O)N[C@@H]([C@@H](C)O)C(=O)N3CCC[C@H]3C(=O)N3C[C@H](O)C[C@H]3C(=O)N[C@@H](Cc3c[nH]c4ccccc34)C(=O)N[C@H](C(N)=O)CSCCC5=O)nn1)C(=O)N[C@H](C)C(=O)N1CCC[C@H]1C(=O)N[C@@H](Cc1ccc(O)cc1)C(=O)N2 | Tumor necrosis factor receptor superfamily member 9/Nectin-4 (Homo sapiens, UniProt Q07011+Q96NY8) | reporter gene, agonist | HT-1376 coculture with reporter cells |  | reference: background | Emax | 42 fold |
| Nc1nc2c(ncn2[C@@H]2O[C@H](COP(=O)(O)O)[C@@H](O)[C@H]2O)c(=O)[nH]1 | GUK1 (Homo sapiens, UniProt Q16774, R44A) | binding, ITC |  |  |  | ΔH | -7.72 ± 0.83 kcal/mol |
| O=C1CCC(N2Cc3cc(CNC(=O)C(F)(F)c4ccc(Cl)cc4)ccc3C2=O)C(=O)N1 (stereo not shown) | GSPT1/CRBN, 300-496; with DDB1 (Homo sapiens, UniProt P15170+Q96SW2) | degrader, AlphaLISA |  | 10 µM | reference: reference compound | ternary complex formation | 100% |
| C[C@H]1O[C@@H](O[C@H]2CC[C@@]3(C)[C@@H](CC[C@]4(C)[C@@H]3C=CC3=C5CC(C)(C)CC[C@]5(CO)[C@@H](O)C[C@]34C)[C@]2(C)CO)[C@H](O)[C@@H](O[C@@H]2O[C@H](CO)[C@@H](O)[C@H](O)[C@H]2O)[C@H]1O | NAD-dependent protein deacetylase sirtuin-1 (SIRT1, Homo sapiens, UniProt Q96EB6) | binding, microscale thermophoresis |  | 140 nM |  | MST normalised fluorescence | 884 a.u. |
| COc1cccc2c1OCC(C(=O)Nc1ccc3c(c1)CN(C1CCC(=O)NC1=O)C3=O)=C2 (stereo not shown) | GSPT1/CRBN (Homo sapiens, UniProt P15170+Q96SW2) | degrader, Western blot, refers to: GSPT1/CRBN | A2780 and OCI-Ly3 | concentration not given, 24 h |  | protein level | no effect |
| Nc1ncnc2c1ncn2[C@@H]1O[C@H](COP(=O)(O)OP(=O)(O)O)[C@@H](O)[C@H]1O | T1, ssDNA, aptamer | ITC |  |  |  | Kd | 15.6 µM |
| Nc1ncnc2c1ncn2[C@@H]1O[C@H](COP(=O)(O)CP(=O)(O)OP(=O)(O)O)[C@@H](O)[C@H]1O | P2X purinoceptor 1 (P2RX1, Homo sapiens, UniProt P51575, E122A) | saturation binding | HEK293 | 25 nM |  | specific binding | 178 CCPM and 276 CCPM and 192 CCPM |
| COc1cccc(OC[C@@H]2CN(CCN3CCc4ccccc43)CCO2)c1 | 5-hydroxytryptamine receptor 5A (HTR5A, Homo sapiens, UniProt P47898) | radioligand binding |  | concentration not given, added: [3H]LSD |  | inhibition | -9.8% |
| O=C(NCc1ccc(S(=O)(=O)c2cc(F)cc(F)c2)cc1)c1ccc2nccn2c1 | Nicotinamide phosphoribosyltransferase (NAMPT, Homo sapiens, UniProt P43490) | inhibitor, competition gel profiling |  | concentration not given |  | binding inhibition | inhibited |
